Assay results of several laboratories.
Each numbered part is a random draw from the data of one study; scales do not carry over between parts. Substitutions count along the parent as printed.

Study 1
Target: Fragile X messenger ribonucleoprotein 1, C-terminal low-complexity region (Fmr1, Mus musculus, UniProt P35922)
Method: RNA Bind-n-Seq
Molecule type: RNA
Sample: in vitro
Concentration: 200 nM
Notes: whole 134-nt RNA, ends assumed
Together with: 150 mM LiCl
Relative to: input library
Reading: higher = stronger binding
All molecules: 7-deaza-guanosine replaces G
Constant ends, left off below: GGGAGUUCUACAGUCCGACGAUC … UGGAAUUCUCGGGUGUCAAGG
Oligonucleotide | log2 enrichment
CAAGUCCUGUGCUACACAUCGUAUGUACCGAAUCGGAAAGGAAAAAGGAAAAAGGAAAGUAUUAUGUUACGCCGUUCGGAUCUGCACUUC | -0.814
CAAGUCCUGUGCUACACAUCGUAUGUACCGAAUCGGUUUGGGGUUUGGUUUGGGGAAAGUAUUAUGUUACGCCGUUCGGAUCUGCACUUC | -1.35
AGUCCUGUGCUACACAUCGUAUGUACCGAAUCGGGCCCCGGGGCCCCGGCCCCGGGGAAAGUAUUAUGUUACGCCGUUCGGAUCUGCACU | -3.5
UGUGCUACACAUCGUAUGUACCGAAUCGGGGAAAAAAAGGGGUUUUUGGGGAAAAAAAGGGGAAAGUAUUAUGUUACGCCGUUCGGAUCU | -0.0547
UGGGAGGUGGAUUUUGUUUAUUUUUUUAGCUCAUUUCCAGGGGUGGGAAUUUUUUUUUAAUAUCUGUCAUGAAUAAAGUUGUUUUUGAAA | 0.17
UCCUGUGCUACACAUCGUAUGUACCGAAUCGGUUUUUUUGGUUUUUUUGGUUUUUUUGGGAAAGUAUUAUGUUACGCCGUUCGGAUCUGC | -0.553
AAGUCCUGUGCUACACAUCGUAUGUACCGAAUCGGGGUUUUGGUUUUGGGGUUUUGGAAAGUAUUAUGUUACGCCGUUCGGAUCUGCACU | -1.56
CUGUGCUACACAUCGUAUGUACCGAAUCGGAAAAAAAGGGGAAAAAAAGGAAAAAAAGGGGAAAGUAUUAUGUUACGCCGUUCGGAUCUG | -0.0603

Study 2
Target: CCNA1, cyclin fold, Cln2 fusion (human)
Method: yeast growth competition, sequencing
Sample: yeast
Notes: strong parent motif
Relative to: not given
Reading: higher = stronger binding
Parent: RBL2 docking peptide (human); STTRRRLFVENDS; partner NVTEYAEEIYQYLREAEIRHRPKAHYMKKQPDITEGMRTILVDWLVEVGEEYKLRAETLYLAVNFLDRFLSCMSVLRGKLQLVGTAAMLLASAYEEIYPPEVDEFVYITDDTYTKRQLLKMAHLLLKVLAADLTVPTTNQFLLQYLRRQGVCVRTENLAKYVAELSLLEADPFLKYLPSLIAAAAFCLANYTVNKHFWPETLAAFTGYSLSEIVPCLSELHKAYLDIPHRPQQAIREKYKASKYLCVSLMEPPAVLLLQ
Substitution | normalised enrichment score
D12Q | 0.473
R4T | 0.116
R6W | 0.217
L7W | 0.191
R4K | 0.366
R6Y | 0.131
V9Y | 0.679
T3D | 0.101

Study 3
Target: RING finger protein unkempt homolog, zinc fingers 1-6, GST-SBP tag (UNK, Homo sapiens, UniProt Q9C0B0, residues 30-357)
Method: RNA Bind-n-Seq
Molecule type: RNA
Sample: in vitro
Concentration: not given
Notes: RNA with constant flanks, human and mouse sites, ends assumed
Relative to: input RNA pool
Reading: higher = stronger binding
Constant ends, left off below: GGGAGUUCUACAGUCCGACGAUC … CAACAGAGGAUUGAGCAUCA
Target sequence (chain): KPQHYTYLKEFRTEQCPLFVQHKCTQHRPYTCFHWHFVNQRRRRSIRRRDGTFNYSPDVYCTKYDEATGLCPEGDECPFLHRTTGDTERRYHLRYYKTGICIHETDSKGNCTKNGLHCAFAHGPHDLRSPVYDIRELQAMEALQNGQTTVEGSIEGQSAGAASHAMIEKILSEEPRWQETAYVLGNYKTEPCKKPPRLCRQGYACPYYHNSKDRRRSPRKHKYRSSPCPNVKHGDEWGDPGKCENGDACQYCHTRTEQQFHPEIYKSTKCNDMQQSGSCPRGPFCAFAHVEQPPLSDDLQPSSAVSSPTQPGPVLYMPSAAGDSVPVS
Oligonucleotide | bound/input enrichment [ratio]
GUCCAGCGUCCUCGGUGUUUUUUUGACAUUGCCAUUAAUAAUCAACCUGCUGGAAGAGUUGUCUUUGAAUUAUUUUCCGAUGUAUGUCCCAAAACGUGUGAGAACUUUCGCUGCCUUUGC | 0.37
AAUGAAACCGGCUUAUUGUCUUCAAUUAAAAAGUUCAUUAAAGGAAGCACACCCAAGGAAGAGAGAGAAAAUCCUUCGAAGCGGAGUAGAAUUGAACGUGAUAUAGAUAAUAAUUUAAUC | 4.01
AUGGCUUGGACGAUAUUAAGGACCGCUCGACGCUGGGAGAGAAACUGGGGGGCAGUGUUGUAGUUUCCCUUGAAGGAAAGCCACUAUAAAAUAAUAGCCAAGUGCCAUUUGAUCUUAAGG | 0.231
UGGCAUACAGACCAGUUUUAGGACUGGUAAUCCAACAGGGACUUACCAGAACGGUUAUGAUAGCACUCAGCAAUAUGGAAGUAAUGUUGCAAAUAUGCACAAUGGUAUGAACCAACAGGC | 0.141
CAACUGGUGCAGCGCUGCCAGCAGGCAUACAUGCAGUACAUCCACCACCGCUUGAUUCACCUGACUCCUGCGGACUACGACGACUUUGUGAAUGCGAUCCGGAGUGCCCGCAGCGCCUUC | 0.0673
AAGACUGUUGACCUGAAGCCUGACUGGGGCAAGGGUUAUUCAAGAAAAGCAGCAGCCCUUGAAUUCCUAAACCGGUUUGAGGAAGCCAAACGAACCUAUGAAGAAGGUUUAAAACAUGAA | 0.209
AAAAUAUAUAUAAAUUUACUUCACUGCUUUUUUUUUUUUUGGACAUAAGGGCUGUGUGUAUAUAGCCCCUGUUGGCCUCAAAACUCACAGUCCUCUCAUCAAGAGGUAGGAUUCUGGGCA | 0.903
AAGAUUUGGACCUUGGAGCUGAACCAGGGAGCUAGCAAAAGUAAAGCAGACUUAUAAAAUUAUAGCUAUGUGCAGCUGCACAACACAGUCCUUCCACUAGCAGCUGUGUUAAAGUAUUUA | 4.1

Other studies, line by line
Molecule | target | read-out | molecule type | concentration | quantity | value
TPREAPYEL | HLA class I histocompatibility antigen, A alpha chain, allele A*80:01 (Homo sapiens, UniProt P04439) | peptide-MHC binding | peptide | concentration not given | binding | inactive

Some of these lines once more (study 2):
Substitution | normalised enrichment score
V9Y | 0.679
